Assay results pooled from the literature.
Parts stem from different laboratories: compare values within a part only.

Sample 1
Target: Sal-like protein 4, full length isoform B (SALL4, Homo sapiens, UniProt Q9UJQ4-2, residues 1-616)
Technique: universal PBM
Form: double-stranded DNA, one strand shown
Medium: in vitro
Tested at: not given
Notes: 8-mer, flanks averaged, mean of replicates
Direction: higher = stronger binding
The E-score of `CCTCAGCG` is reported as -0.107.
For `CCGGAGAA`, the E-score was -0.201.
With `ATCCCTAG` the E-score was 0.0288.
The E-score of `GTTATGTA` is reported as 0.212.
`ATGACAAT` gave an E-score of 0.328.

Sample 2
Target: Interferon regulatory factor 7, full length, phosphomimetic (IRF7, Homo sapiens, UniProt Q92985, residues 1-503, S471D/S472D/S475D/S476D/S477D/S483D/S484D/S487D)
UniProt Q92985, sequence (whole entry, unmodified, looked up): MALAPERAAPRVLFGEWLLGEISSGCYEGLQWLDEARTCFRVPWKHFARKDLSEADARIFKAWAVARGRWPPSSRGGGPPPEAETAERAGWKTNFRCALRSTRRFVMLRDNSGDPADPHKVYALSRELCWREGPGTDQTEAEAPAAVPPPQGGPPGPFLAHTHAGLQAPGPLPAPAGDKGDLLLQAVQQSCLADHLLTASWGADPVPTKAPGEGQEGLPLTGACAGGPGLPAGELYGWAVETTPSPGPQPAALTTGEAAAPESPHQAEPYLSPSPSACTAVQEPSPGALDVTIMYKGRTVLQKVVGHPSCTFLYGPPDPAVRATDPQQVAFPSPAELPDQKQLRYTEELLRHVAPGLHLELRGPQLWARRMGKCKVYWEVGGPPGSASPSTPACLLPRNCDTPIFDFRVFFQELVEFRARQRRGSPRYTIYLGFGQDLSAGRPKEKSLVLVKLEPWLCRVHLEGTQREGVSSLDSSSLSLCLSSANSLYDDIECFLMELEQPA
Technique: protein-binding microarray
Form: double-stranded DNA, one strand shown
Medium: in vitro
Tested at: 2200 nM top
Notes: 60-bp whole probe
Added: salmon DNA 0.4 mg/ml
Baseline: random background probes
Direction: higher = stronger binding
Constant ends, left off below: GCCTAGCAC … GTCTTGATTCGCTTGACGCTGCTG
Under “fitted relative affinity”, `AGGTGGGAGGGGACAGTGGTGTGCTAG` is recorded as 0.231 z-score.
For `TTAGATATCGGGTATCGAATAGTGCTA`, “fitted relative affinity” read 0.167 z-score.
For `TTAGGTTTCGGTATCAGTTAGTGCTAG`, “fitted relative affinity” read 6.65 z-score.
For `GACGGTTTCGACTATAGGGACGTGCTA`, “fitted relative affinity” read 2.46 z-score.
`GACGGTCTCGGACGGGGGACGTGCTAG`: “fitted relative affinity” 0.217 z-score.
For `GACGGTTTAGGGTATCGGGACGTGCTA`, “fitted relative affinity” read 0.42 z-score.
For `TCACCTCTCAACCATCCTACTGTGCTA`, “fitted relative affinity” read 2.06 z-score.
`GGCGGTATCGGGTATCGGGACGTGCTA` — result for “fitted relative affinity”: -0.852 z-score.
Under “fitted relative affinity”, `GACGGCCTGGGGTATCGGGACGTGCTA` is recorded as -1.29 z-score.
Under “fitted relative affinity”, `TTAGGTTTCCTTATCCATTAGTGCTAG` is recorded as 2.02 z-score.

Sample 3
Target: RNA binding protein fox-1 homolog 2, RRM domain, GST-SBP tag (RBFOX2, Homo sapiens, UniProt O43251-10, residues 100-194)
Technique: RNA Bind-n-Seq
Form: RNA
Medium: in vitro
Tested at: 365 nM
Notes: natural RNA segment, single round, ends assumed
Baseline: no-protein control
Direction: higher = stronger binding
Construct (chain): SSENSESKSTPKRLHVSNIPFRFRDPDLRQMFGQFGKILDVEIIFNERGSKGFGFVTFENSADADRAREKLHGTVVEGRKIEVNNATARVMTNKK
Under “RBNS enrichment (R)”, `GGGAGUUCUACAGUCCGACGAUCGGGCAGCCCAGCCUCUGUCCCUCUUUGCCUGUGUGAGCAUCUCUGUGUACCCACUCCUCACUGCCCCACCAGCCACCUCUUGGGCAUGCUCAGCCCUUCCUAGAAGAGUCUGGAAUUCUCGGGUGCCAA` is recorded as 0.676.
Under “RBNS enrichment (R)”, `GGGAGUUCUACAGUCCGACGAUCCAAGGCCCUGUGGGAGGAGACUGGCCUGCAUCUCUCUAAGACUUAGUCUGACGCCACGCGCAUCUCUUGUUCUGUGUUCAAUCAGUAGUCCAGGGGAGAAGCUUCUGCUAUGGAAUUCUCGGGUGCCAA` is recorded as 0.347.
`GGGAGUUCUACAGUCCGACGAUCGCCAUAGUUUUGACUCAGCCCCAUGCAUCCUUUCCCUCUUUCCUGAAAACAACUAAUUUAAAUUUGCUUUGUUUUCUUUUUUAAGUUGAAUUGACGUUAAUGUGUUUUCAUGGAAUUCUCGGGUGCCAA`: “RBNS enrichment (R)” 1.41.
`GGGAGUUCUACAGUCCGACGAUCUGUACCCACGUGCCCAUGUAUAUGUUUGUGUGUGUGUAUGUGUGAGUGUGUGUGUAUGUGUGUGUGUAUGUAAGUCCCCUGUGUGGGUCCAGUUUCAAGGCAUGUACAAUUGGAAUUCUCGGGUGCCAA` — result for “RBNS enrichment (R)”: 5.79.
`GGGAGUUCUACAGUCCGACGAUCCGAAAAACAGAGCCUCCUAGAUGUAACAUUCCUGAUCAAGGUACAAUUCUUUAAAAUUCACUAAUGAUUGAGGUCCAUAUUUAGUGGUACUCUGAAAUUGGUCACUUUCCUGGAAUUCUCGGGUGCCAA` — result for “RBNS enrichment (R)”: 0.303.
`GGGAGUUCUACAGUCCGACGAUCCCCCUGACUUGUUCUGGCAAGGAACAGAAGUAAGGGUGUGAUCCAGCCCGUCCCCCUGGGACCCAUCCCUUCUCUAUAGGAAAAGCUCAGCGCAGGUAUUACAGGUAUGGUGGAAUUCUCGGGUGCCAA`: “RBNS enrichment (R)” 0.217.
Under “RBNS enrichment (R)”, `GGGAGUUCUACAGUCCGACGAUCUGACUAAGAAACAGAGUCCAAGCAGAGAAGGUAGGAACCCUCCAUAGCUCUCUGCCCUGAUGUGUGGGGGAACUAGGAAGAAGUCCUUUGACCUCACCAGGCCUCAUGCUUGGAAUUCUCGGGUGCCAA` is recorded as 0.917.
`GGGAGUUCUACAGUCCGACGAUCGCCCUGGCUUCUCUGAGGAAGCUGGGGUUCAUGACAAUGGCAGAUGUAAAGUUAUUCUUGAAGUCAGAUUGAGGCUGGGAGACAGCCGUAGUAGAUGUUCUACUUUGUUCUGGAAUUCUCGGGUGCCAA` — result for “RBNS enrichment (R)”: 0.34.

Other studies, line by line
The fold induction of `PhoQ, residues 284 288 289 292 302 303 TTCLQL` is reported as 8.05 (PhoP, residues 12 14 15 18 19 MHTVL (Escherichia coli, UniProt P23836); Sort-seq, item: YFP reporter; E. coli; PhoQ-PhoP variant library, added: 10 µM Mg2+; baseline: high Mg2+ state, higher = stronger signaling).

Excerpt of the above (sample 3):
`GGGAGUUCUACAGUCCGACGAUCUGUACCCACGUGCCCAUGUAUAUGUUUGUGUGUGUGUAUGUGUGAGUGUGUGUGUAUGUGUGUGUGUAUGUAAGUCCCCUGUGUGGGUCCAGUUUCAAGGCAUGUACAAUUGGAAUUCUCGGGUGCCAA` — result for “RBNS enrichment (R)”: 5.79.
